Experimental data collected from several papers.
Parts stem from different laboratories: compare values within a part only. Substitutions count along the parent as printed.

Series 1
Target: CCNE2, cyclin fold, Cln2 fusion (human)
Method: yeast growth competition, sequencing
Sample: yeast
Notes: weak parent motif
Baseline: not given
Direction: higher = stronger binding
Starting sequence: CDC6 docking peptide (human); TLKGRRLVFDNQL
`TLKGRRLWFDNQL [V8W]`: “normalised enrichment score” 0.588.
Under “normalised enrichment score”, `TTKGRRLVFDNQL [L2T]` is recorded as 0.441.
For `TLKGDRLVFDNQL [R5D]`, “normalised enrichment score” read -0.592.
`TLKGRRLVIDNQL [F9I]`: “normalised enrichment score” 0.846.
`TLKGRRLVFDNQM [L13M]` — result for “normalised enrichment score”: -0.0353.
`TLKGRRWVFDNQL [L7W]` — result for “normalised enrichment score”: 1.03.
For `TLKGRRPVFDNQL [L7P]`, “normalised enrichment score” read -0.0106.

Series 2
Target: ATF5, bZIP domain (human)
Method: DHFR protein complementation
Sample: yeast
Notes: single substitutions, most at no-binding floor
Baseline: wild-type JUN-FOS pair
Direction: higher = stronger binding
Starting sequence: JUN, bZIP domain (human); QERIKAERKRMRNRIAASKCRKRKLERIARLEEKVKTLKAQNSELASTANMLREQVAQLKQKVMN; partner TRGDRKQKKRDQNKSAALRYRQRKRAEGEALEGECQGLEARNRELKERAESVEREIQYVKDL
With `K39V` the binding fitness was -1.45 natural log.
The binding fitness of `A46W` is reported as -1.54 natural log.
The binding fitness of `R53H` is reported as -1.49 natural log.
For `L52F`, the binding fitness was -1.5 natural log.
For `T37S`, the binding fitness was -1.5 natural log.
The binding fitness of `A46N` is reported as -1.47 natural log.
`K36C` has a binding fitness of -1.55 natural log.
With `V56S` the binding fitness was -1.49 natural log.

Series 3
Target: Sal-like protein 4, full length isoform B (SALL4, Homo sapiens, UniProt Q9UJQ4-2, residues 1-616)
Method: universal PBM
Molecule type: double-stranded DNA, one strand shown
Sample: in vitro
Tested at: not given
Notes: 8-mer, flanks averaged, mean of replicates
Direction: higher = stronger binding
`ATTATCGC` has an E-score of 0.265.
For `AAGCTTAT`, the E-score was 0.133.
For `AGGCGATG`, the E-score was -0.155.
`CAGTACAC` gave an E-score of -0.0784.
The E-score of `CCCTCCCG` is reported as -0.263.
`CCATTAAA` has an E-score of 0.151.
`GCACCAGC` gave an E-score of -0.291.
`CCGACAAA` has an E-score of 0.0883.
`AACGCCAA` gave an E-score of 0.127.

Mixed results
`PhoQ, residues 284 288 289 292 302 303 TTCLQL` has a fold induction of 6.63 (PhoP, residues 12 14 15 18 19 LWHVM (Escherichia coli, UniProt P23836); Sort-seq, refers to: YFP reporter; E. coli; PhoQ-PhoP variant library, with: 10 µM Mg2+; baseline: high Mg2+ state, higher = stronger signaling).

For quick reference, copied from above (series 2):
The binding fitness of `R53H` is reported as -1.49 natural log.
For `L52F`, the binding fitness was -1.5 natural log.
For `T37S`, the binding fitness was -1.5 natural log.
The binding fitness of `A46N` is reported as -1.47 natural log.
